# Published values from different studies.
# Compare with care: the assays were run in different laboratories. ± gives the spread as reported.
Compound,test,test system,conditions,scale,quantity,value
CCCCC[C@H](O)CC[C@@H]1[C@H]2Cc3cccc(OCC(=O)O)c3C[C@H]2C[C@H]1O,LC-MS/MS,"Japanese CTD-associated PAH patients, plasma","inhaled, 54 µg",,geometric mean Cmax,0.66 ng/mL
COc1ccnc(C[S+]([O-])c2nc3ccc(OC(F)F)cc3[nH]2)c1OC (centres unmarked),,"human, plasma","intravenous, median",,CL,155 mL/min
COc1cc(N)c(Cl)cc1C(=O)NC1CCN(CCCOc2ccc(F)cc2)CC1OC (centres unmarked),,"male Hartley guinea pig, anaesthetized","intravenous, 1 mg/kg, baseline before infusion",,QTc interval,306 ± 0.2 ms
O=C(O)CCC(=O)O.[2H]C([2H])([2H])Oc1cc(C)c2[nH]ccc2c1CN1CC[C@@H](C2CC2)C[C@H]1c1ccc(C(=O)O)cc1,multiple ascending dose,healthy Chinese subjects,200 mg once daily,,subjects with TEAE Diarrhea,12.5%
COc1ccc(Br)c(/C=N/NC(=O)COc2ccc(-c3ccccc3)cc2)c1,haemolysis,sheep erythrocytes,"1 h, pH 7.5",,HC50,> 128 µg/mL
Cc1ccc(Sc2ccccc2N2CCNCC2)c(C)c1,measured: blood in urine,healthy adult men,"oral, 10 mg daily, 12 days",,participants with TEAE,0%
COc1ccc2c(c1)CN(C(=O)CCN1CCC(Cc3ccccc3)CC1)CC[S@@+]2[O-],telemetry,conscious male beagle dogs,"intravenous, 8 mg/kg, 4 h",,PQ interval,88 ± 9 ms
CC(C)NCC(O)COc1cccc2ccccc12 (centres unmarked),,"male Hartley guinea pig, anaesthetized","intravenous infusion, 1 mg/kg, 10 min infusion, post-infusion",,QTc interval,355 ± 0.3 ms
CC(C)[C@H](N)C(=O)NCCCS(=O)(=O)O,,"human both sexes, plasma","oral, 256.5 mg once daily days 8-14, day 14, fasted capsule",,AUC(0-12),7870 ng·h/mL
C[C@@H]1C[C@@]1(C(=O)O)C(=O)NCc1ccc(Cl)c(Cl)c1,"colloidal aggregate formation, dynamic light scattering",50 mM potassium phosphate buffer,"200 µM, pH 7.0, 1% DMSO",higher = more aggregation,DLS scattered light intensity,1.37e+06 counts/s
CC(C)(Sc1ccncc1-c1ccc(C#N)c2ccccc12)C(=O)O,,"human, urine","oral, 15 mg, together with: febuxostat 0 mg",,fraction excreted in urine (0-24 h),1.8%
CC(C)[C@@H](CS(=O)(=O)C(C)C)N1C(=O)[C@@](C)(CC(=O)O)C[C@H](c2cccc(Cl)c2)[C@H]1c1ccc(Cl)cc1,,"FVB Abcb1a/b-/- mice, plasma","intravenous, 20 mg/kg",,volume of distribution,0.628 L/kg
O=C(Nc1nc2cccc(-c3ccc(CN4CCS(=O)(=O)CC4)cc3)n2n1)C1CC1,measured: cardiac disorders,human rheumatoid arthritis patients,"oral, 300 mg once daily, 4 weeks, regardless of relatedness",,treatment-emergent adverse events,0%
CCCCOC(=O)N1CCN(C(=O)[C@H](CP(=O)(O)O)NC(=O)c2cc(N3CC[C@H](OC)C3)nc(-c3ccccc3)n2)CC1,measured: Urea,"human, blood","16 mg, 24 h",,change from baseline,-0.27 ± 1.07 mmol/L
Cc1nc(S(=O)(=O)Nc2cccc(-n3nn[nH]c3=O)c2)c(Br)n1C,"colloidal aggregate formation, dynamic light scattering",50 mM potassium phosphate buffer,"200 µM, pH 7.0, 1% DMSO",higher = more aggregation,DLS scattered light intensity,671000 counts/s
C[C@@H]1CN(c2c(F)c(N)c3c(=O)c(C(=O)O)cn(C4CC4)c3c2F)C[C@H](C)N1,,"male Hartley guinea pig, anaesthetized","intravenous, 3 mg/kg, baseline before infusion",,QTc interval,333 ± 1.1 ms
CC(C)(C(=O)N1CCOc2c(C#N)cncc2C1)C(F)F,measured: Investigations,human,"oral, 15 mg twice daily, 14 days, multiple ascending dose",,subjects with adverse event,12.5%
CC(=O)Oc1ccccc1C(=O)O,,"male Hartley guinea pig, anaesthetized","intravenous, 10 mg/kg, baseline before infusion",,QTc interval,299 ± 0.2 ms
C[C@H](O)c1cc(C(=O)N[C@@H](C)Cn2ccc(-c3ccc(C#N)c(Cl)c3)n2)n[nH]1,,"healthy male human, plasma","intravenous infusion, 100 µg 14C-labelled, 15 min infusion, microtracer, geometric mean",,AUC(0-tlast),9060 h·pg eq/mL
Cc1cc(Nc2ccc(S(F)(F)(F)(F)F)cc2)n2nc(C(C)(F)F)nc2n1,,Plasmodium falciparum malaria patients,"oral, 250 mg",,adverse event Fatigue,18.2%
C[C@@H](Nc1cc(F)cc(F)c1)c1cc(C(=O)N(C)C)cc2c(=O)cc(N3CCOCC3)oc12,,human,"oral, 60 mg twice daily, vistusertib alone, 5:2 schedule, steady state",,AUC(0-12),1560 ng·h/mL
C[C@@H](N)C1CCN(S(=O)(=O)c2cccc3cnccc23)CC1,,healthy volunteers,"250 mg, 2 h, standing",relative to: baseline,diastolic blood pressure reduction,-19.7 mmHg
Cn1ncc(S(=O)(=O)NCc2ccccc2Cn2cncn2)c1C(=O)O,"colloidal aggregate formation, dynamic light scattering",50 mM potassium phosphate buffer,"200 µM, pH 7.0, 1% DMSO",higher = more aggregation,DLS scattered light intensity,556000 counts/s
Cc1cc(N2CCc3c(c(C)nn3CC34CCC(NC(=O)[C@@H]5COCCN5)(CC3)CC4)C2)c2cnn(C)c2n1,LC-MS/MS,129/Sv mice,"oral, 1.5 mg/kg, 3 h",,blood concentration,26 ± 27 nM
CCN1/C(=C/C(C)=O)Sc2ccc(F)cc21,,cynomolgus monkey,"oral, 10 mg/kg, 2 h post-dose",,diastolic blood pressure,76 ± 4 mmHg
Cl.[2H]C([2H])([2H])CC(=O)c1cnc(NC(=O)C2CC2)cc1Nc1cccc(-c2ncn(C([2H])([2H])[2H])n2)c1OC,,"human, fasted, multiple dose","oral, 40 mg twice daily, tablet, day 14, geometric mean",,Ctrough,226 ng/mL
O=C(CCCN1CCC(O)(c2ccc(Cl)cc2)CC1)c1ccc(F)cc1,,"male Hartley guinea pig, anaesthetized","intravenous, 0.01 mg/kg, baseline before infusion",,QTc interval,343 ± 0.4 ms
COC1=C(OC)[C@H](O)[C@H](C/C=C(\C)CC/C=C(\C)CCC=C(C)C)[C@@H](C)C1=O,,"Balb/c mice male, whole blood","oral, 50 mg/kg, 4 h",,blood concentration,24.5 nM
O=C(O)CC[C@H](NC(=O)N[C@@H](CCCCNC(=O)[C@H](Cc1ccc2ccccc2c1)NC(=O)[C@H]1CC[C@H](CNC(=O)CN2CCN(CC(=O)O)CCN(CC(=O)O)CCN(CC(=O)O)CC2)CC1)C(=O)O)C(=O)O,,"male BALB/c nude mice, LS174T-PSMA xenografts, salivary gland","intravenous, 0.3 nmol, 2 h, radiolabelled (111In or 99mTc)",relative to: tumour over salivary gland,tumour-to-tissue ratio,233 ± 68.5
CNC(=O)c1ccc(-c2cnc3ncc(Cc4ccc5ncccc5c4)n3n2)cc1F,"CTCAE v4.0, any causality",human gastric cancer patients,"oral, 600 mg twice daily, expansion cohort at RP2D",,non-cardiac chest pain incidence (all grades),0%
O=c1c2ccccc2oc2ccccc12,,tricaprin-tricaprylin mixture,"30 °C, tricaprin fraction 0.36",,solubility,0.0462 mole fraction
COc1ccnc(C(=O)NCC(=O)O)c1O,soil adsorption,clay soil,"pH 7.6, organic carbon 1.7 %",,Freundlich coefficient KF,6.19 mL/g
CCO[C@H]1CCN(Cc2c(OC)cc(C)c3[nH]ccc23)[C@H](c2ccc(C(=O)O)cc2)C1,,"human moderate hepatic impairment, plasma","oral, 200 mg single dose, geometric mean",,total Cmax,3230 ng/mL
Nc1ccn([C@@H]2O[C@H](CO)[C@@H](O)C2(F)F)c(=O)n1,measured: dFdU,"human, plasma","intravenous, 1000 mg/m^2, together with: before paricalcitol",,"Tmax, median",1.25 h
COc1cc(N2CCC(N3CCN(C)CC3)CC2)ccc1Nc1ncc(Cl)c(Nc2ccccc2P(C)(C)=O)n1,mass balance and in vitro,human,"oral, 180 mg, remaining routes unassigned",,CYP3A4 contribution to clearance,42.8%
O=C1Cc2cc(CCN3CCN(c4nsc5ccccc45)CC3)c(Cl)cc2N1,,"male Hartley guinea pig, anaesthetized","intravenous, 0.1 mg/kg, baseline before infusion",,QTc interval,336 ± 0.4 ms
O=C(O)c1occc1S(=O)(=O)NC1CCSc2c(F)cccc21 (centres unmarked),"colloidal aggregate formation, dynamic light scattering",50 mM potassium phosphate buffer,"200 µM, pH 7.0, 1% DMSO",higher = more aggregation,DLS scattered light intensity,284000 counts/s
C[C@H](CCC(=O)O)[C@H]1CC[C@H]2[C@@H]3[C@H](O)C[C@@H]4C[C@H](O)CC[C@]4(C)[C@H]3C[C@H](O)[C@]12C,,"human, plasma",endogenous baseline diurnal,,daily mean concentration,41 ± 9.6 nM

# Repeated from above:
Compound,test,test system,conditions,scale,quantity,value
CC(=O)Oc1ccccc1C(=O)O,,"male Hartley guinea pig, anaesthetized","intravenous, 10 mg/kg, baseline before infusion",,QTc interval,299 ± 0.2 ms
Cn1ncc(S(=O)(=O)NCc2ccccc2Cn2cncn2)c1C(=O)O,"colloidal aggregate formation, dynamic light scattering",50 mM potassium phosphate buffer,"200 µM, pH 7.0, 1% DMSO",higher = more aggregation,DLS scattered light intensity,556000 counts/s
CNC(=O)c1ccc(-c2cnc3ncc(Cc4ccc5ncccc5c4)n3n2)cc1F,"CTCAE v4.0, any causality",human gastric cancer patients,"oral, 600 mg twice daily, expansion cohort at RP2D",,non-cardiac chest pain incidence (all grades),0%
